Measured values pooled from the literature.
Several values in a cell are separate wells, animals, samples, runs or records. ± gives the spread as reported.
ADRA2C: Alpha-2C adrenergic receptor (ADRA2C, Homo sapiens, UniProt P18825)
Voltage-dependent P/Q-type calcium channel subunit alpha-1A: Voltage-dependent P/Q-type calcium channel subunit alpha-1A (Homo sapiens, UniProt O00555)
UCHL1: Ubiquitin carboxyl-terminal hydrolase isozyme L1 (UCHL1, Homo sapiens, UniProt P09936)

Cc1cc(Cl)c(OCCOCCN2CCN(C)CC2)c(Br)c1.O=C(O)C(=O)O  inhibition (Trypanosoma cruzi; reporter translation, Renilla luciferase mRNA translation; cell-free extract; 40 µM; reference: DMSO): -12.2%
Cc1cc(Oc2ncccc2CN2CCN(c3ccc(F)cc3F)CC2)ccc1-c1c(C)c(=O)[nH]c(=O)n1C  selectivity ratio (ADRA2C; binding, radioligand binding; together with: [3H]rauwolscine; reference: Ki alpha2A over Ki alpha2C): 4
Cc1nc(CSc2nc(SCc3ccc(C(C)C)cc3)nc(=O)[nH]2)cs1  decatenated DNA (DNA topoisomerase 2-alpha (TOP2A, Homo sapiens, UniProt P11388); decatenation; 15.6 µM, replicate 1): 60.2%
Cn1c(=O)c2[nH]cnc2n(C)c1=O  inhibition (Voltage-dependent P/Q-type calcium channel subunit alpha-1A; ion current, antagonist; HEK293; 30 µM): 1%
O=C(O)c1ccc([N+](=O)[O-])cc1  current density (BEST1 (Homo sapiens, UniProt O76090); whole-cell patch clamp; HEK293 transiently expressing channel; concentration not given, membrane potential 0 mV): -0.05 pA/pF and -0.15 pA/pF and -0.08 pA/pF and 0 pA/pF and -0.65 pA/pF and 0.03 pA/pF
COc1cc(-c2cncc3c2CN(C)Cc2cc(N4CCNCC4)ccc2-3)cc(OC)c1OC  remaining activity (Ephrin type-A receptor 7 (EPHA7, Homo sapiens, UniProt Q15375); kinase activity; 1 µM, human enzyme, together with: ATP 10 µM; reference: DMSO control): 113%
CCC(C)(C)C(=O)O[C@H]1C[C@@H](C)C=C2C=C[C@H](C)[C@H](CC[C@@H]3C[C@@H](O)CC(=O)O3)[C@H]21  IC30 (Voltage-dependent P/Q-type calcium channel subunit alpha-1A; ion current, antagonist, automated patch clamp): 1580 nM
C#CCCC1(CC[C@H](NC(=O)NCCCCCCNC(=O)NCCNC(=O)COc2cccc([C@@H](CCc3ccc(OC)c(OC)c3)OC(=O)[C@@H]3CCCCN3C(=O)C(=O)C(C)(C)CC)c2)C(N)=O)N=N1.O=C(O)C(F)(F)F  normalized labeling ratio (Peptidyl-prolyl cis-trans isomerase FKBP1A (FKBP1A, Homo sapiens, UniProt P62942); photoaffinity labeling, in-gel fluorescence, measured: Alexa Fluor 647 click label; 2 µM, UV irradiation 365 nm; reference: probe over FKBP12 signal, higher = more labeling): 5.08
C1=C/COCc2cc(ccc2OCCN2CCCC2)Nc2nccc(n2)-c2cccc(c2)COC/1  percent of control (Cyclin-dependent kinase 13 (CDK13, Homo sapiens, UniProt Q14004); concentration not given, gene name CDC2L5): 60%
CNC(=O)[C@H](CNC(=O)Cn1[nH]c(=O)c2ccccc2c1=O)NC(=O)c1cnc(C)cn1  ligand efficiency (Poly [ADP-ribose] polymerase tankyrase-1 (TNKS, Homo sapiens, UniProt O95271); enzyme activity, inhibitor): 0.42
Cc1ccc2ccccc2c1NS(=O)(=O)c1cccc(Cl)c1O  remaining activity (malate dehydrogenase; enzyme activity, inhibitor; 200 µM, pH 7.0, 1% DMSO, aggregation counter-screen): 107%
Cc1cccc(N2CC(C(=O)O)CC2=O)c1 (centres unmarked)  fold enrichment (Leucine-rich repeat serine/threonine-protein kinase 2, WD40 domain (LRRK2, Homo sapiens, UniProt Q5S007); binding, affinity selection mass spectrometry; reference: other proteins in batch): 1.24
Nc1c(Br)cc(Br)cc1CN[C@H]1CC[C@H](O)CC1  inhibition (Voltage-dependent P/Q-type calcium channel subunit alpha-1A; ion current, antagonist; HEK293; 30 µM): 59%
CC(=O)c1cc(NS(=O)(=O)c2cc(Cl)cc(Cl)c2O)ccc1F  remaining activity (malate dehydrogenase; enzyme activity, inhibitor; 200 µM, pH 7.0, 1% DMSO, aggregation counter-screen): 94%
Cc1ccc(NC(=O)C(C#N)=Cc2cccc(C(F)(F)F)c2)c(C)c1  labelling (UCHL1; covalent, intact protein LC-MS; 12.5 µM): 26.7%
Cc1cc(Oc2ncccc2CN2CCN(c3ccc([N+](=O)[O-])cc3Cl)CC2)ccc1-c1c(C)c(=O)[nH]c(=O)n1C  selectivity ratio (ADRA2C; binding, radioligand binding; together with: [3H]rauwolscine; reference: Ki alpha2B over Ki alpha2C): 4
Cc1cc(-c2ccnc3[nH]cc(F)c23)cc(F)c1[C@@]1(O)[C@H](C)CN(C(=O)CN)C[C@@H]1C  probe labelling inhibition (Serine/threonine-protein kinase LATS1 (LATS1, Homo sapiens, UniProt O95835); ATP/ADP probe binding, KiNativ; HEK293T lysate; 1 µM, Lys1 peptide ALYATKTLR): 80.8%
COc1ccc(-n2nc(C(=O)NC(=O)OCc3cc(C(=O)O)ccc3OP(=O)(O)O)c3c2C(=O)N(c2ccc(N4CCCCC4=O)cc2)CC3)cc1  drug formation rate (Alkaline phosphatase, placental type (Homo sapiens, UniProt P05187); substrate; 100 µM, pH 7.6, 37 °C): 1.65 pmol/min
CC(=O)N[C@@H](CC(C)C)C(=O)N[C@@H](CC(=O)O)C(=O)N1CCC[C@H]1C(=O)N1CCC[C@H]1C(=O)N[C@@H](CC(C)C)C(=O)N[C@@H](Cc1c[nH]cn1)C(=O)N[C@@H](CO)C(=O)N[C@H](C(=O)N[C@@H](C)C(N)=O)[C@@H](C)OP(=O)(O)O  binding enthalpy (Serine/threonine-protein kinase PLK1 (PLK1, Homo sapiens, UniProt P53350); polo-box domain binding, isothermal titration calorimetry; concentration not given, 25 °C): -15.4 ± 0.1 kcal/mol
Cc1cccc(C=C(C#N)C(=O)Nc2ccc(C(=O)O)cc2)c1  labelling (UCHL1; covalent, intact protein LC-MS; 12.5 µM): 33.8%
Cn1ncc(S(=O)(=O)NCc2ccccc2SC(F)(F)F)c1C(=O)O  remaining activity (malate dehydrogenase; enzyme activity, inhibitor; 200 µM, pH 7.0, 1% DMSO, aggregation counter-screen): 96%
CCN(CC)CCCCCCNc1cc(OC)cc2c(C)ccnc12  inhibition (Trypanosoma cruzi; reporter translation, Renilla luciferase mRNA translation; cell-free extract; 40 µM; reference: DMSO): -4.5%
N#CC(=Cc1cccc(Cl)c1)C(=O)NCc1ccccc1  labelling (UCHL1; covalent, intact protein LC-MS; 12.5 µM): 14.4%
C=CC(=O)N1CCC(COCC(=O)N2CCN(c3nc(-c4cnc(N)nc4C(F)F)nc(N4CCOC[C@@H]4C)n3)CC2)CC1  remaining binding (Platelet-derived growth factor receptor alpha (PDGFRA, Homo sapiens, UniProt P16234); KINOMEscan; 1 µM): 86%
CC(C)Cc1nnc(NC(=O)CCl)s1  labelling (UCHL1; covalent, intact protein LC-MS; 12.5 µM): 24.1%
CC[C@@H]1[C@H](F)C(=O)N[C@@H]1COc1nccc2cc(C(N)=O)c(OC)cc12  inhibition (Protein-tyrosine kinase 2-beta (PTK2B, Homo sapiens, UniProt Q14289); ATP probe binding, KiNativ profiling, measured: activation loop probe site; THP-1 cell lysate; 0.01 mM): -0.9%
Oc1noc2cc(Cl)ccc12  radioactivity reduction (D-amino-acid oxidase (Rattus norvegicus, UniProt O35078); blocker, in vitro autoradiography; rat brain sections, cerebellum, pons; 10 µM, together with: [11C] radiotracer; reference: no pretreatment): > 80%
Nc1ncnc2c1ncn2[C@@H]1O[C@H](COP(=O)(O)CP(=O)(O)OP(=O)(O)O)[C@@H](O)[C@H]1O  specific binding (P2X purinoceptor 1 (P2RX1, Homo sapiens, UniProt P51575, R292A); saturation binding; HEK293; 52 nM): 97 CCPM and 80 CCPM
CCN1CCC[C@H]1CNC(=O)c1c(O)c(Cl)cc(Cl)c1OC  log2 fold change (G-protein coupled receptor 83 (GPR83, Homo sapiens, UniProt Q9NYM4); β-arrestin recruitment, TANGO luminescence, measured: GPR83; concentration not given; reference: basal luminescence): -0.071
Cc1cc(Oc2ncccc2CN2CCN(c3ccccc3Br)CC2)ccc1-c1c(C)c(=O)[nH]c(=O)n1C  selectivity ratio (ADRA2C; binding, radioligand binding; together with: [3H]rauwolscine; reference: Ki alpha2B over Ki alpha2C): 3
N#Cc1c(N=Cc2cc([N+](=O)[O-])c(Cl)cc2Cl)sc2c1CCCC2  labelling (UCHL1; covalent, intact protein LC-MS; 12.5 µM): 3.39%
CN(C(=O)n1cnc(-c2ccc[n+]([O-])c2)c1)C1CCCCC1  ED50 (Fatty-acid amide hydrolase 1 (Faah, Rattus norvegicus, UniProt P97612); enzyme activity, inhibitor; rat, brain; oral, 1 h): 0.096 mg/kg
CCN1CCN(c2cc(N3CCN(CC)CC3)nc(NCCNc3ccnc4cc(Cl)ccc34)n2)CC1  activation (Thyroid hormone receptor alpha (THRA, Homo sapiens, UniProt P10827); reporter gene, Gal4 hybrid reporter; 20 µM; reference: vehicle): 1.4 ± 0.64 fold
CCc1cnn2c(NCc3ccc[n+]([O-])c3)cc(N3CCCC[C@H]3CCO)nc12  chemical shift change (Bromodomain-containing protein 4 (BRD4, Homo sapiens, UniProt O60885); 19F NMR, measured: tyrosine 119; 94 µM; reference: free protein): -0.037 ppm
O=C(O)c1ccc(Nc2ncc3c(n2)-c2ccc(Cl)cc2C(c2c(F)cccc2F)=NC3)cc1  remaining activity (EphA7(h); kinase activity; 1 µM): 67%

Repeated from above:
Cc1cc(Oc2ncccc2CN2CCN(c3ccc(F)cc3F)CC2)ccc1-c1c(C)c(=O)[nH]c(=O)n1C  selectivity ratio (ADRA2C; binding, radioligand binding; together with: [3H]rauwolscine; reference: Ki alpha2A over Ki alpha2C): 4
Cc1nc(CSc2nc(SCc3ccc(C(C)C)cc3)nc(=O)[nH]2)cs1  decatenated DNA (DNA topoisomerase 2-alpha (TOP2A, Homo sapiens, UniProt P11388); decatenation; 15.6 µM, replicate 1): 60.2%
